Experimental data of several laboratories.
Parts stem from different laboratories: compare values within a part only.

Set 1 — method: universal PBM; molecule type: double-stranded DNA, one strand shown; medium: in vitro; tested at: 600 nM; reading: higher = stronger binding
Target: Sal-like protein 4, full length isoform A (SALL4, Homo sapiens, UniProt Q9UJQ4, residues 1-1053)
Sequence of UniProt Q9UJQ4 (whole entry, looked up): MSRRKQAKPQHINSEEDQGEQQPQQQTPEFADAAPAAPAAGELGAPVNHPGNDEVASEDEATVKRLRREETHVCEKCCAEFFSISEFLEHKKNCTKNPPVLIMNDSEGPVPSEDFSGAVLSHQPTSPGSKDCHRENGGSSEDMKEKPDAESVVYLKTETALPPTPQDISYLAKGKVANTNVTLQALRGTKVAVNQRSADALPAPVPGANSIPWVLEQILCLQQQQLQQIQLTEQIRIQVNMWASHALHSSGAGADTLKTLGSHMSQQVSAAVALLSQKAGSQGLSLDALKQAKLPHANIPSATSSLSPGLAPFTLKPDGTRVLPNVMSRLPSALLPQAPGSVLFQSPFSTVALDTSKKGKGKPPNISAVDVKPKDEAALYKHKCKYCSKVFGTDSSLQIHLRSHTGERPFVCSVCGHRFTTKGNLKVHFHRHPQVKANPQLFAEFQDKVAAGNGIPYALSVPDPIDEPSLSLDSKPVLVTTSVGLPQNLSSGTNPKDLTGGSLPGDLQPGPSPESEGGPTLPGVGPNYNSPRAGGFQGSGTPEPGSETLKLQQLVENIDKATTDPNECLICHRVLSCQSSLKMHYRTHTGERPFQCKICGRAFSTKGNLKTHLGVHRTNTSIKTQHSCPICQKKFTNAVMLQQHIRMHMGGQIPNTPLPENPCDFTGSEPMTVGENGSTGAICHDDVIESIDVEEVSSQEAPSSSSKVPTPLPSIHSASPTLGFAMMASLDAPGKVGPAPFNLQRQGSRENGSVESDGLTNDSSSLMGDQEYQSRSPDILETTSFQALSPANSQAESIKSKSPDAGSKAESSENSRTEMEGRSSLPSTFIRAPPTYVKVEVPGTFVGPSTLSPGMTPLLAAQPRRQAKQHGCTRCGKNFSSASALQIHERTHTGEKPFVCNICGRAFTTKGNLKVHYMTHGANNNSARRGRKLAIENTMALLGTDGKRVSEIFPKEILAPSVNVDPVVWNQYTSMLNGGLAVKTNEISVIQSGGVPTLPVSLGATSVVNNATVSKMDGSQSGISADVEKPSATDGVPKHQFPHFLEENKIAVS
Notes: 8-mer, flanks averaged, mean of replicates
`AGCAGACT` has an E-score of 0.0967.
For `GCACATTA`, the E-score was 0.19.
With `CAAGTCCG` the E-score was -0.206.
The E-score of `CACCACAG` is reported as -0.143.
With `CAACAATA` the E-score was 0.323.

Set 2 — method: protein-binding microarray; molecule type: double-stranded DNA, one strand shown; medium: in vitro; tested at: 2540 nM top; notes: 60-bp whole probe; with: salmon DNA 0.4 mg/ml; reference: random background probes; reading: higher = stronger binding
Target: Interferon regulatory factor 3, full length, phosphomimetic (IRF3, Homo sapiens, UniProt Q14653, residues 1-427, S386D/S396D/S398D/S402D/T404D/S405D)
Construct (chain): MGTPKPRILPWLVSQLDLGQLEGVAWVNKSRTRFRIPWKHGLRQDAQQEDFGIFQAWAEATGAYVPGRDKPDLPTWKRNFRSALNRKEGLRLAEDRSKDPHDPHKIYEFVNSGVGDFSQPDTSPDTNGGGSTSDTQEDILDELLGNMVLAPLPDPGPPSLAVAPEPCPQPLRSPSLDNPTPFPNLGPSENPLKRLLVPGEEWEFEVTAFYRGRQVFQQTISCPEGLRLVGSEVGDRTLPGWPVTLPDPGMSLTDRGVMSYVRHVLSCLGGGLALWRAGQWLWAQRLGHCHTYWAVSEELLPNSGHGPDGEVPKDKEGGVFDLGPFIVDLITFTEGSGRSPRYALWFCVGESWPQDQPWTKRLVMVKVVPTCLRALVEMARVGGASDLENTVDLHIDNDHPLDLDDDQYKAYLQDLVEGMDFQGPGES
`GCCTAGCACTCAAGTTTTCCTCTGTCACTGTGCTAGGTCTTGATTCGCTTGACGCTGCTG`: “fitted relative affinity” 1.29 z-score.
`GCCTAGCACATGAGTCTCAAAATTAGAGAGTGCTAGGTCTTGATTCGCTTGACGCTGCTG` — result for “fitted relative affinity”: -0.197 z-score.
For `GCCTAGCACGACGGACTGGACTTTCGGGAAGTGCTAGTCTTGATTCGCTTGACGCTGCTG`, “fitted relative affinity” read -0.126 z-score.

Set 3 — method: protein binding microarray; molecule type: double-stranded DNA, one strand shown; medium: in vitro; tested at: not given; reference: not given; reading: higher = stronger binding
Target: Histone acetyltransferase KAT6A, winged helix 2, GST fusion (KAT6A, Homo sapiens, UniProt Q92794, residues 85-181)
Notes: 8-mer, flanks averaged, mean of 2 arrays, mostly near background
Target sequence (chain): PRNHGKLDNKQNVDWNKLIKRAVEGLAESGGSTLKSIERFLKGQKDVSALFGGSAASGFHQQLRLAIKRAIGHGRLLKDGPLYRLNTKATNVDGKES
For `ATCATAAA`, the E-score was -0.0109.
`ATGCCGTA` has an E-score of 0.0873.
With `AGTAATGG` the E-score was -0.04.
With `CGAAACCC` the E-score was 0.0938.

Other studies, line by line
`PhoQ, residues 284 288 289 292 302 303 ASASEQ` has a fold induction of 1.18 (PhoP, residues 12 14 15 18 19 SPWRL (Escherichia coli, UniProt P23836); Sort-seq, item: YFP reporter; E. coli; PhoQ-PhoP variant library, with: 10 µM Mg2+; reference: high Mg2+ state, higher = stronger signaling).

Repeated from above (set 1):
With `CAACAATA` the E-score was 0.323.
The E-score of `CACCACAG` is reported as -0.143.
